Measured values pooled from the literature.
A part holds a random share of what one study measured. Positions count from the first letter of the parent shown.
Sequence of UniProt O15294 (whole entry, looked up): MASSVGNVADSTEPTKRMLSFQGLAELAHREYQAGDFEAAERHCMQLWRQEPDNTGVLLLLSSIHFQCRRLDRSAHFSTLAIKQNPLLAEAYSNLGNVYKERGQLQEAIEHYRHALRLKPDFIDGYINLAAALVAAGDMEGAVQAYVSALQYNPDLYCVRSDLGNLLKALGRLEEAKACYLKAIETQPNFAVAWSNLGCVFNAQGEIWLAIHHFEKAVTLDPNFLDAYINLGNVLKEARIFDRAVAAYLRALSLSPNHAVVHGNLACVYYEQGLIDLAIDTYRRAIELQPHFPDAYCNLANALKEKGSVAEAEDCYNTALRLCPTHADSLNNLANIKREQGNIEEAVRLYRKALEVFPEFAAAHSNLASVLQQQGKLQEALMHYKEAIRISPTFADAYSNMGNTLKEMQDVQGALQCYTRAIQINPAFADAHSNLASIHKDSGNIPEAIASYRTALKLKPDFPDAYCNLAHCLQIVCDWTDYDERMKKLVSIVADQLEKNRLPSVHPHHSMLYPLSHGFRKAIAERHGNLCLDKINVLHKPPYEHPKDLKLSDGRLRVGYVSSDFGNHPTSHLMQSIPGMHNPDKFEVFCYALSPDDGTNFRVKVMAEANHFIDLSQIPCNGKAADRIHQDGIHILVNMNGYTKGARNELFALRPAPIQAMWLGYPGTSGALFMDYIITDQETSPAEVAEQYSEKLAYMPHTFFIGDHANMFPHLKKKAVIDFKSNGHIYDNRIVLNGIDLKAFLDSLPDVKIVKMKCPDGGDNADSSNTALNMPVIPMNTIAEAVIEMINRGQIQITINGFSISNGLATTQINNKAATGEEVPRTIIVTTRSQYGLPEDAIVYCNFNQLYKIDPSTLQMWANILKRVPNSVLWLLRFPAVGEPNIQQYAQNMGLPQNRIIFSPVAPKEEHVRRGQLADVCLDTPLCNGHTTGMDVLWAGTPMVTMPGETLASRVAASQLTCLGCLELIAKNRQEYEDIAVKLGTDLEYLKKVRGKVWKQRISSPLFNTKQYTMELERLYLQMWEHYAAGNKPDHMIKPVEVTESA

Sample 1
Target: Ras GTPase-activating protein-binding protein 1, full length (G3BP1, Homo sapiens, UniProt Q13283)
Sequence of UniProt Q13283 (whole entry, looked up): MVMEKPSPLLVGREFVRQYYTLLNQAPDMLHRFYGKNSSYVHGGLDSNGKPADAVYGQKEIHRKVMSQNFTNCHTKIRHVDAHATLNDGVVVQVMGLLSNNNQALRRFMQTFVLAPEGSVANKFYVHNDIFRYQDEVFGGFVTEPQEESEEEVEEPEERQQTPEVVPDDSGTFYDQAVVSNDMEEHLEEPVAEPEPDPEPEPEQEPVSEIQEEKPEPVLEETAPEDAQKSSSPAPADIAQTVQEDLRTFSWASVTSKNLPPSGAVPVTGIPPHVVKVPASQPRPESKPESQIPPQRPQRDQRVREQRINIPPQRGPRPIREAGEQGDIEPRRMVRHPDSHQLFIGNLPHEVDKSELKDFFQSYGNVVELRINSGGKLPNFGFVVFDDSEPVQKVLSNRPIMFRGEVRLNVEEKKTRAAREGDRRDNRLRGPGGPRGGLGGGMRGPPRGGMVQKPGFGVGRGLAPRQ
Technique: RNA Bind-n-Seq
Molecule type: RNA
Medium: in vitro
Tested at: 200 nM
Notes: whole 134-nt RNA, ends assumed
Together with: 150 mM LiCl
Baseline: input library
Reading: higher = stronger binding
All molecules: 7-deaza-guanosine replaces G
`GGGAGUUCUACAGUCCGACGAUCUUCCCGGAGAACUCGAGUAAAUCUAGAAGUUGCCAGGUUUCAGAACUAUUUAUUCCUUUAAUGUGCAGACGAAGGGAACGUCAUCGUUUGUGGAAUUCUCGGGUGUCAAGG` has a log2 enrichment of -0.00293.
`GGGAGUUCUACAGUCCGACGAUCGCAGGAAGUAAAAACAAAUGGAAAUGCUUCGGAUAGUGGCAGGGGUGGGGGUUGCUAAGGAAAGGGUGGGAUGGCAGUGGGUAAAGAGUUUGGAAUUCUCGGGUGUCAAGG` has a log2 enrichment of 0.253.
For `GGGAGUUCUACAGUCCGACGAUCUGGCCCUGGUGGCAUGCGGGGAGGAAGAGGUGGCAUCAUGGAUCGUGGUGGUCCCGGUGGAAUGUUCAGAGGUGGCCGUGGUGGAGACAGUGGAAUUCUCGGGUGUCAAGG`, the log2 enrichment was 0.331.
For `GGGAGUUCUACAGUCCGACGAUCUCAAGUCCUGUGCUACACAUCGUAUGUACCGAAUCGGGAAGGGAAGGGGAAGGGAAAGUAUUAUGUUACGCCGUUCGGAUCUGCACUUCCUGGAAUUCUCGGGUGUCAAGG`, the log2 enrichment was -0.604.
With `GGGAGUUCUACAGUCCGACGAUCAGUCCUGUGCUACACAUCGUAUGUACCGAAUCGGGGAAAAGGGAAAAGGAAAAGGGGAAAGUAUUAUGUUACGCCGUUCGGAUCUGCACUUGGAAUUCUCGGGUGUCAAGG` the log2 enrichment was -0.398.
For `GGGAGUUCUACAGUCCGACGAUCUGGCCCUCGUGGCAUGCGGGGAGGAAGAGGUGGCCUCAUGGAUCGUGGUGGUCCCGGUGGAAUGUUCAGAGGUGGCCGUGGUGGAGACAGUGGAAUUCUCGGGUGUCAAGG`, the log2 enrichment was 0.292.
For `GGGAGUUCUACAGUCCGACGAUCACCAUGCAGGUGGGCAUGUUUGGGAAGUGGGGCAAGGGGGGGAUAGGGAGGGGGGUAACACUUUGGGAACAGGUGGUCCCAGGUCGUUUCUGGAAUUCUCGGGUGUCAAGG`, the log2 enrichment was 0.484.
With `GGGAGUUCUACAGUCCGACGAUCAGUCCUGUGCUACACAUCGUAUGUACCGAAUCGGGAAAAGGGGAAAAGGGAAAAGGGAAAGUAUUAUGUUACGCCGUUCGGAUCUGCACUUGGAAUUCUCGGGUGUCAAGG` the log2 enrichment was -0.556.

Sample 2
Target: CCNF, cyclin fold, Cln2 fusion (human)
Technique: yeast growth competition, sequencing
Medium: yeast
Notes: strong parent motif
Baseline: not given
Reading: higher = stronger binding
Starting sequence: viral docking peptide; PGASRRLFGSSAD
Under “normalised enrichment score”, `PGASRRLAGSSAD [F8A]` is recorded as 0.138.
Under “normalised enrichment score”, `PAASRRLFGSSAD [G2A]` is recorded as 3.15.
`PGASRRLFASSAD [G9A]`: “normalised enrichment score” 4.68.

Sample 3
Target: Phosphate system positive regulatory protein PHO4, full length, GST-tagged (PHO4, Saccharomyces cerevisiae, UniProt P07270, residues 1-312)
Technique: competition protein-binding microarray
Molecule type: double-stranded DNA, one strand shown
Medium: in vitro
Tested at: 2 µM
Notes: whole 60-bp probe, lowest competitor level
Together with: Cbf1 competitor, 0.05 µM
Reading: higher = stronger binding
Construct (chain): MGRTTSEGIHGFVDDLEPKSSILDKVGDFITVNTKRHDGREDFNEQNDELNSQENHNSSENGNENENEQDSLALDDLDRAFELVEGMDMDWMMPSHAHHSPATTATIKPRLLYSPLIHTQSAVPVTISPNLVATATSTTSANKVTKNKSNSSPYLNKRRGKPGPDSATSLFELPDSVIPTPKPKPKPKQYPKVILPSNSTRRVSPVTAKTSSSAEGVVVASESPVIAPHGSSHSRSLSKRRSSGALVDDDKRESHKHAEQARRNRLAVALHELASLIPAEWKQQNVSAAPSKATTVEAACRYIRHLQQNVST
The fluorescence intensity of `CTGACGGCAACGCGACGCGTGACGGGTAAGATAAGAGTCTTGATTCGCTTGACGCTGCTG` is reported as 7700 a.u.
`GTCTTGTCTCATTGTCACCGAACTTTCCCCACTTCAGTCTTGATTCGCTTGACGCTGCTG` has a fluorescence intensity of 4460 a.u.
`GAGCCCGTAATCCAACACGTTTGATATTTTGTGCGAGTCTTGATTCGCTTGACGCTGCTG` gave a fluorescence intensity of 9880 a.u.
For `TAATAATATTTATTACACGTGATGGAATATATCCTGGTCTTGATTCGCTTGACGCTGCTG`, the fluorescence intensity was 15400 a.u.
The fluorescence intensity of `TGCGCAACAACTTGGGCAGTGGGTGTATGTCTAGAAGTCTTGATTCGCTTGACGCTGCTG` is reported as 3540 a.u.
With `AGGAACGCTTAAAACATCGTGGAGTGAGTGTGGTAAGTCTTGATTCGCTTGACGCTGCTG` the fluorescence intensity was 8500 a.u.
`GTCTTGTCTCATTTTCACGTGAGCTTCCCCACTTCAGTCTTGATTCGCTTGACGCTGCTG` gave a fluorescence intensity of 9550 a.u.
`AAAAGAGAAGATACCCACGTGCCGAAAAAATAAAGTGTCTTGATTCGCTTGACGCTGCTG` gave a fluorescence intensity of 16300 a.u.

Further values, each from its own experiment
Under “minimum log2 enrichment ratio”, `QVFPPEYWIEYNMV` is recorded as 2.89 (UDP-N-acetylglucosamine--peptide N-acetylglucosaminyltransferase 110 kDa subunit (OGT, Homo sapiens, UniProt O15294); binding, phage display NGS; peptide; panning round 2; baseline: input library).

Some of these lines once more (sample 1):
For `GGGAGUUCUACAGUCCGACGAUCACCAUGCAGGUGGGCAUGUUUGGGAAGUGGGGCAAGGGGGGGAUAGGGAGGGGGGUAACACUUUGGGAACAGGUGGUCCCAGGUCGUUUCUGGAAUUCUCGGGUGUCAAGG`, the log2 enrichment was 0.484.
With `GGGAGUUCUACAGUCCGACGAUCAGUCCUGUGCUACACAUCGUAUGUACCGAAUCGGGAAAAGGGGAAAAGGGAAAAGGGAAAGUAUUAUGUUACGCCGUUCGGAUCUGCACUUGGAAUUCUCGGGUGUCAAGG` the log2 enrichment was -0.556.
